Published values from different studies.
Each line is one published result; not all experiments were run side by side. ± marks the error that the study gave.
Cell line: SH-SY5Y

Compound = O=C1C=C(OCCCCCCCCn2cc(CNc3ccc4nccnc4c3)nn2)C(=O)c2ccccc21; assay = cell growth or viability, SRB; setting = 48 h; quantity = GI50; value = > 100 µM
Compound = CC1CCc2nc3ccccc3c(Nc3ccc4ccccc4n3)c2C1 (centres unmarked); assay = MTT; setting = 50 µM, 1 h pretreatment, 10% FBS, together with: H2O2; quantity = viability; value = 59.5 ± 2.56%
Compound = CC[C@H](CO)Nc1nc(NCc2ccc(C)s2)n2ncc(C(C)C)c2n1; assay = cell survival, MTS; setting = 24 h; quantity = lowest toxic concentration; value = ≥ 10 µM
Compound = O=c1c(NCc2ccccc2)c(NC2CCN(Cc3ccccc3)CC2)c1=O; assay = neuroprotection, MTT; setting = 12.5 µM, 24 h pretreatment, together with: H2O2 650 µM for 4 h; quantity = cell survival; value = 57.4%
Compound = Fc1ccc(Nc2c3c(nc4ccccc24)CCCC3)cc1; assay = MTT; setting = 50 µM, 1 h pretreatment, 10% FBS, together with: H2O2; quantity = viability; value = 50.5 ± 4.32%
Compound = O=c1oc2c(CNCCc3cccc(F)c3)c(O)ccc2c2c1CCC2; assay = MTT; setting = 25 µM, together with: L-glutamate 100 µM; quantity = neuroprotection; value = 18.2 ± 0.086%
Compound = Cc1cccnc1Nc1c2c(nc3ccccc13)CCCC2; assay = MTT; setting = 50 µM, 1 h pretreatment, 10% FBS, together with: H2O2; quantity = viability; value = 72.5 ± 3.23%
Compound = CCCn1nnc2c(NCc3ccc(C)s3)nc(N[C@H](CC)CO)nc21; assay = MTS; setting = 100 µM, 24 h; quantity = cell survival reduction; value = ~50%
Compound = COc1ccc(Nc2c3c(nc4ccccc24)CCCC3)nc1; assay = MTT; setting = 50 µM, 1 h pretreatment, 10% FBS, together with: H2O2; quantity = viability; value = 69 ± 2.55%
Compound = O=C1C=C(OCCCn2cc(CNc3ccc4nccnc4c3)nn2)C(=O)c2ccccc21; assay = cell growth or viability, SRB; setting = 48 h; quantity = GI50; value = 94 µM
Compound = COc1ccc(Nc2c3c(nc4ccc(Cl)cc24)CCCC3)nc1; assay = MTT; setting = 50 µM, 1 h pretreatment, 10% FBS, together with: H2O2; quantity = viability; value = 46.8 ± 2.66%
Compound = Cc1ccc(CCNc2c(NC3CCN(Cc4ccccc4)CC3)c(=O)c2=O)cc1; assay = neuroprotection, MTT; setting = 12.5 µM, 24 h pretreatment, together with: H2O2 650 µM for 4 h; quantity = cell survival; value = 58.7%
Compound = Cc1nc2ccc(NCc3cn(CCCCCCCCOC4=CC(=O)c5ccccc5C4=O)nn3)cc2nc1C; assay = cell growth or viability, SRB; setting = 48 h; quantity = GI50; value = > 100 µM
Compound = Nc1ccc(Nc2c(NC3CCN(Cc4ccccc4)CC3)c(=O)c2=O)cc1; assay = DCFH-DA flow cytometry; setting = 12.5 µM, 24 h, together with: H2O2 850 µM for 4 h; scale = baseline: H2O2-treated cells; quantity = intracellular ROS level; value = decreased
Compound = COCCN1COc2c(cc3c4c(c(=O)oc3c2C)CCC4)C1; assay = MTT; setting = 25 µM, together with: L-glutamate 100 µM; quantity = neuroprotection; value = 20 ± 0.061%
Compound = Cc1nc2ccc(NCc3cn(CCCOC4=CC(=O)c5ccccc5C4=O)nn3)cc2nc1C; assay = cell growth or viability, SRB; setting = 48 h; quantity = GI50; value = 31.2 µM
Compound = O=c1c(NCc2ccc(O)cc2)c(NC2CCN(Cc3ccccc3)CC2)c1=O; assay = neuroprotection, MTT; setting = 12.5 µM, 24 h pretreatment, together with: H2O2 650 µM for 4 h; quantity = cell survival; value = 59.6%
